Measurements from different studies.
Protocols differ between the studies behind these lines. ± marks the error that the study gave.
SLCO1B3 M233I/S112A: Solute carrier organic anion transporter family member 1B3 (SLCO1B3, Homo sapiens, UniProt Q9NPD5, M233I/S112A)
Chain of UniProt Q9NPD5 (whole entry, unmodified, looked up): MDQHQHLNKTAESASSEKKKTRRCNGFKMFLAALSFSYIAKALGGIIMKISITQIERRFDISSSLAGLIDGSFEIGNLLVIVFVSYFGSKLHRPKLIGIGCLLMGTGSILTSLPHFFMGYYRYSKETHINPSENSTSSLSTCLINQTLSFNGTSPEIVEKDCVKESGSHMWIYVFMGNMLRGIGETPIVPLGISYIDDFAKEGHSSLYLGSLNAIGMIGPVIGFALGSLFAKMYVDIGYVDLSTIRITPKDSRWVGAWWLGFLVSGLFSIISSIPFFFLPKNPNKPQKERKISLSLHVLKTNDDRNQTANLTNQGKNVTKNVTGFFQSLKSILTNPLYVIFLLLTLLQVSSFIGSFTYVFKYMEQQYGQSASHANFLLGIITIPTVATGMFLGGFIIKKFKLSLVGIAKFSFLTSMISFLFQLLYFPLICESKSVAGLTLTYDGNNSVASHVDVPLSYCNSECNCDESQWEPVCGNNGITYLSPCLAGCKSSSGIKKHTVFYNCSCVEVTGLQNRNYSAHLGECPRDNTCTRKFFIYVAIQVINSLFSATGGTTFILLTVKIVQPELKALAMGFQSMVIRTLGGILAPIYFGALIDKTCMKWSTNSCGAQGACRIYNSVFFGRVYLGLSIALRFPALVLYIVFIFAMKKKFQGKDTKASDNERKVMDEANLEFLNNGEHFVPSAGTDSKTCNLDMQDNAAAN
CYP2D6: Cytochrome P450 2D6 (CYP2D6, Homo sapiens, UniProt P10635)
Chain of UniProt P10635 (whole entry, looked up): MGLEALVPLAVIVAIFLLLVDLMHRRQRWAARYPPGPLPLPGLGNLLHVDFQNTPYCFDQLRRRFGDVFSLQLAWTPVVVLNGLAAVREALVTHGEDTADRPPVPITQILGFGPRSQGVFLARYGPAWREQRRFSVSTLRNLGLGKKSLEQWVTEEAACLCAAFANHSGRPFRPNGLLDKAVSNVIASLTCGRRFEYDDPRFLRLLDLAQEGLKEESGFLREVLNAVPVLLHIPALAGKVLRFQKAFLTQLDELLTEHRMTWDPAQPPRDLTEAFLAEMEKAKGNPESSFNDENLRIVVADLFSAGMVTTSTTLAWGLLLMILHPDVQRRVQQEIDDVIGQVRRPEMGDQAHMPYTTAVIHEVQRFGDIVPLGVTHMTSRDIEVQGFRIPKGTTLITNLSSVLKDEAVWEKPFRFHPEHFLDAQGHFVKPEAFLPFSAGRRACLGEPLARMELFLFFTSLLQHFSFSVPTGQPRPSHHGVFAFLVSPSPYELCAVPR
CYP2C9: Cytochrome P450 2C9 (CYP2C9, Homo sapiens, UniProt P11712)
SLCO1B3: Solute carrier organic anion transporter family member 1B3 (SLCO1B3, Homo sapiens, UniProt Q9NPD5)
NR1I2: Nuclear receptor subfamily 1 group I member 2 (NR1I2, Homo sapiens, UniProt O75469)
Chain of UniProt O75469 (whole entry, looked up): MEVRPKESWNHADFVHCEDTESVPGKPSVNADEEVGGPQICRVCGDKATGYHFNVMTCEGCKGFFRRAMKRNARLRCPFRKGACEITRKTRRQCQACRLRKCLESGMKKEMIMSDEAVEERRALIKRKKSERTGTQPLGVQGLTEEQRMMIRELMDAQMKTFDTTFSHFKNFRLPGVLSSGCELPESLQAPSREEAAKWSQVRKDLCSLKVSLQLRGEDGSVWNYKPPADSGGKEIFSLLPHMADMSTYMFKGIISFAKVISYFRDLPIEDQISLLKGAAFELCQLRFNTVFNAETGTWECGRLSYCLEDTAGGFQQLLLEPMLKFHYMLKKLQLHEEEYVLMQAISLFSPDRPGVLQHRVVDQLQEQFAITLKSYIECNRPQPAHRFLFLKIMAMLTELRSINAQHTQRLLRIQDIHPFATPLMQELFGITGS
Chain of UniProt P05177 (whole entry, looked up): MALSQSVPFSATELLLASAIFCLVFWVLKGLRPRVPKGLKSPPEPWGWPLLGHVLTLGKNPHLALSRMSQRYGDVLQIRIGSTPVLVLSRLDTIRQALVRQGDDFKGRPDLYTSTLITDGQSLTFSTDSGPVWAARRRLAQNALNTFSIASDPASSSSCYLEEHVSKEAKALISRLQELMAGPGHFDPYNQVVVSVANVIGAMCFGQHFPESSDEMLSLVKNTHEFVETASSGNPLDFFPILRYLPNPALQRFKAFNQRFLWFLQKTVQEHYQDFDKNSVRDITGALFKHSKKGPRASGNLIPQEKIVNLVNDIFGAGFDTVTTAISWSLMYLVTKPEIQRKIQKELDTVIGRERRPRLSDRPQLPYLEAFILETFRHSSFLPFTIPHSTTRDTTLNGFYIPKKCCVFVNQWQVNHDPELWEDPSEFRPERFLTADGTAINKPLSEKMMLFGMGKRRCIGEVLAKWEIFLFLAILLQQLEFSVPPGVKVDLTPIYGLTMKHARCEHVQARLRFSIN
Chain of UniProt O15439 (whole entry, looked up): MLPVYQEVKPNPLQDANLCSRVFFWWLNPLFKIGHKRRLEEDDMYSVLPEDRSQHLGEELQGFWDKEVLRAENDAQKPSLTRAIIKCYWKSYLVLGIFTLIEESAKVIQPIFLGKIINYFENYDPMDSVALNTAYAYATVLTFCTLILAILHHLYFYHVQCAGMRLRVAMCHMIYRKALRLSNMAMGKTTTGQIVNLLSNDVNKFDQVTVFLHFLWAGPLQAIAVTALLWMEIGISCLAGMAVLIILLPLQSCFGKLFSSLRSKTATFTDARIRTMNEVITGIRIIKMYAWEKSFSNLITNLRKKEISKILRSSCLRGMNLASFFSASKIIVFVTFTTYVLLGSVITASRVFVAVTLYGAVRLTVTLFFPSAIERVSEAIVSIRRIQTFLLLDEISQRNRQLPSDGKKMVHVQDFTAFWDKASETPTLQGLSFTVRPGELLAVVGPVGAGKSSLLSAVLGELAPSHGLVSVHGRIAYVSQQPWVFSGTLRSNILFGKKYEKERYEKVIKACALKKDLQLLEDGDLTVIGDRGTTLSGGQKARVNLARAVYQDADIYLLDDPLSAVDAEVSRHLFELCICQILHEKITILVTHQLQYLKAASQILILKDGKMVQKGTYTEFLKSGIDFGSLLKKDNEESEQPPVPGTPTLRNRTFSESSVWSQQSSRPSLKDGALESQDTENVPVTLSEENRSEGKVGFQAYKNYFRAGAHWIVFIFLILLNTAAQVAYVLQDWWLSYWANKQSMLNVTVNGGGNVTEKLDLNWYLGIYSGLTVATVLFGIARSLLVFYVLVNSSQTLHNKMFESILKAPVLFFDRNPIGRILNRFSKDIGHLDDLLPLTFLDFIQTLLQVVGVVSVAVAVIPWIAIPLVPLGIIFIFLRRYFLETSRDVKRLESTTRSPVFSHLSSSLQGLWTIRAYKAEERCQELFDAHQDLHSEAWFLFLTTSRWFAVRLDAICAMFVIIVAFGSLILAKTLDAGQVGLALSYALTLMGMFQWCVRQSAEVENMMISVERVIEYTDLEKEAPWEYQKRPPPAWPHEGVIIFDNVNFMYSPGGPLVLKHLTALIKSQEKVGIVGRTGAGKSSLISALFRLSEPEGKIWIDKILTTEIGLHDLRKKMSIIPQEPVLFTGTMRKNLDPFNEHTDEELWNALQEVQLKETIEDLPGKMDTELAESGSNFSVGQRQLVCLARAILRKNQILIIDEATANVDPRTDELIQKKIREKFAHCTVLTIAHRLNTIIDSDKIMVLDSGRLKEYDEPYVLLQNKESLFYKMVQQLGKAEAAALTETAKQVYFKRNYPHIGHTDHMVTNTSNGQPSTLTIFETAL
Chain of UniProt Q96JM7 (whole entry, looked up): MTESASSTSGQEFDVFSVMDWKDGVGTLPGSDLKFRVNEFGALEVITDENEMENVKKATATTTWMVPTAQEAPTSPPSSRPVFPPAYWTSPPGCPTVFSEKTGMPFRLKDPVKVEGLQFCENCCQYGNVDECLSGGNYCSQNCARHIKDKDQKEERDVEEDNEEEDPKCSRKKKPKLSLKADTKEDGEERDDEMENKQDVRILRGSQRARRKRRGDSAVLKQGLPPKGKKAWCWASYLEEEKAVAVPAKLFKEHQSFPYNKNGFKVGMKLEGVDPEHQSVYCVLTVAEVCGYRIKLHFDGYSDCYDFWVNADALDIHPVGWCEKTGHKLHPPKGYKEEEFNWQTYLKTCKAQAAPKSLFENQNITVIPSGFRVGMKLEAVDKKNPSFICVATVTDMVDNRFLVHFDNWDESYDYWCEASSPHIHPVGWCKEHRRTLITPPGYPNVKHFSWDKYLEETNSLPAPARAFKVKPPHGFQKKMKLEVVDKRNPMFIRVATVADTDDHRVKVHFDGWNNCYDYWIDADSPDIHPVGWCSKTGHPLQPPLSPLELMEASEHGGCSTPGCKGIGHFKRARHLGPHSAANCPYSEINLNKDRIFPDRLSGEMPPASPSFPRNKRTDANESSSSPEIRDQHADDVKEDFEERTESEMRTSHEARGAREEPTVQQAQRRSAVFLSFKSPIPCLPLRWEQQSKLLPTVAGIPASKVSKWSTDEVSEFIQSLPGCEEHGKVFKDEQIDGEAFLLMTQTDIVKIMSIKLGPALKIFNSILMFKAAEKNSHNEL
Chain of UniProt P51589 (whole entry, looked up): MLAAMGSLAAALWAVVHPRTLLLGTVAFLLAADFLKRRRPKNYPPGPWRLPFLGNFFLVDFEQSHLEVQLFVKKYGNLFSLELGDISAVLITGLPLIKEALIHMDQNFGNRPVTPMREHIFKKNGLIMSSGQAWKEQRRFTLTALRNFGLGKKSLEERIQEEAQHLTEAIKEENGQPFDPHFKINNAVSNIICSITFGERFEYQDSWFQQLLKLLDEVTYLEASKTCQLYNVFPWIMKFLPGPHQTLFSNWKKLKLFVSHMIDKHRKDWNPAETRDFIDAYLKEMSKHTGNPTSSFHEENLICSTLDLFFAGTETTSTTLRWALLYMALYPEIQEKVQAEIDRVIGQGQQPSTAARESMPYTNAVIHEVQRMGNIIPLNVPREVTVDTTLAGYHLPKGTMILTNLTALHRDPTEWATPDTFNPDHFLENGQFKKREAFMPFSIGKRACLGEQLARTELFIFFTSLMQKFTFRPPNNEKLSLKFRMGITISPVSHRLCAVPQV
Chain of UniProt P02754 (whole entry, looked up): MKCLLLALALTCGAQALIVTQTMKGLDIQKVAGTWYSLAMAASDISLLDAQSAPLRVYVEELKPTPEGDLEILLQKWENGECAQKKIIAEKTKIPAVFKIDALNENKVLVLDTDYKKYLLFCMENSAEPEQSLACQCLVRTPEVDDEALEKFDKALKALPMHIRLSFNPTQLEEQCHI

SMILES = COc1cccc2c1C(=O)c1c(O)c3c(c(O)c1C2=O)C[C@@](O)(C(=O)CO)C[C@@H]3O[C@H]1C[C@H](N)[C@H](O)[C@H](C)O1; tested on = SLCO1B3 M233I/S112A; test = uptake, inhibitor, radiolabelled substrate uptake; system = cells expressing SLCO1B3; conditions = 100 µM, 2 min, together with: 1 µM [3H]estradiol glucuronide; quantity = inhibition; result = 40 to 50%
SMILES = COc1cccc(-c2cccc(Nc3nccc(NC4CCCCC4)n3)c2)c1; tested on = P-glycoprotein (human MDR1); system = MDR1-MDCKII; conditions = 10 µM, 1 h, pH 7.4; how to read = reference: B-A over A-B; quantity = efflux ratio; result = 5.96
SMILES = N#C[C@H](C[C@@H]1CCCNC1=O)NC(=O)[C@H](CC1CC1)NC(=O)c1cc2cccc(Cl)c2[nH]1; tested on = CYP2D6; test = NADPH metabolic stability; conditions = 2 µM, pH 7.4, 100 pmol/mL enzyme; quantity = intrinsic clearance; result = 0.14 µL/min/pmol
SMILES = CC(C)CCCCC(=O)N[C@@H](CCN)C(=O)N[C@H](C(=O)N[C@@H](CCN)C(=O)N[C@H]1CCNC(=O)[C@H]([C@@H](C)O)NC(=O)[C@H](CCN)NC(=O)[C@H](CCN)NC(=O)[C@H](CC(C)C)NC(=O)[C@@H](Cc2ccccc2)NC(=O)[C@H](CCN)NC1=O)[C@@H](C)O; tested on = plasma proteins; test = equilibrium dialysis; system = human, long-term intermittent hemodialysis, plasma; conditions = intravenous, 0.75 mg/kg, 4 h, 37 °C; quantity = fu; result = 0.101
SMILES = CCc1cc(/C(C)=N/OCc2ccc(C3CCCCC3)c(C(F)(F)F)c2)ccc1CN1CC(C(=O)O)C1; tested on = CYP2C9; test = population PK; system = human, CYP2C9*3/*3, plasma; quantity = CYP2C9-mediated clearance; result = 0.165 L/h
SMILES = CC1=C(/C=C/C(C)=C/C=C/C(C)=C/C=C/C=C(C)/C=C/C=C(C)/C=C/C2=C(C)CCCC2(C)C)C(C)(C)CCC1; tested on = Beta-lactoglobulin (LGB, Bos taurus, UniProt P02754); system = protein-carotenoid complex; conditions = 298 K; quantity = zeta potential; result = -15.9 ± 1.12 mV
SMILES = Cn1c(=O)c2c(ncn2C)n(C)c1=O; tested on = Cytochrome P450 1A2 (CYP1A2, Homo sapiens, UniProt P05177); system = human, plasma; conditions = oral, 200 mg, day 1, alone, arithmetic mean; quantity = CL/F; result = 6.86 L/h
SMILES = CC(C)n1c(/C=C/C(O)CC(O)CC(=O)O)c(-c2ccc(F)cc2)c2ccccc21 (stereo not shown); tested on = SLCO1B3; test = substrate, uptake; system = HEK293-A stably expressing SLCO1B3; conditions = 2 min; quantity = Km; result = 3.12 ± 1.32 µM
SMILES = C[C@H](O)c1cnc(NS(=O)(=O)c2ccc(Cl)c(Cl)c2)nc1; tested on = 17-beta-hydroxysteroid dehydrogenase 13 (Mus musculus, UniProt Q8VCR2); test = substrate; system = mouse, wild type vs knockout; quantity = fraction metabolized; result = < 0.5
SMILES = CCCCc1oc2ccc(NS(C)(=O)=O)cc2c1C(=O)c1ccc(OCCCN(CCCC)CCCC)cc1; tested on = Cytochrome P450 2J2 (CYP2J2, Homo sapiens, UniProt P51589); test = inactivator; conditions = together with: astemizole substrate; quantity = kinact/KI; result = 8330 M⁻¹ s⁻¹
SMILES = CNC(=O)c1cc(Oc2ccc(NC(=O)Nc3ccc(Cl)c(C(F)(F)F)c3)cc2)ccn1; tested on = SLCO1B3; test = uptake, substrate; system = HEK293-A stably expressing SLCO1B3; conditions = 2 min; quantity = Vmax; result = 65.6 ± 24 pmol/mg protein/min
SMILES = CC(=O)NCCCCN; test = binding, MIDAS equilibrium dialysis LC-MS; system = A2AR-BRIL thermostabilized; conditions = concentration not given; how to read = reference: no-protein control; quantity = log2 fold change; result = -0.0619
SMILES = [11CH3]Oc1cccc(CCc2cc(O)c(=O)[nH]n2)c1; tested on = Abcb1a (Mus musculus, UniProt P21447); system = CD-1 mice, brain; conditions = concentration not given, 30 min, together with: cyclosporine; how to read = reference: without cyclosporine; quantity = increase in brain uptake; result = no effect
SMILES = CCCCC/C=C\C\C=C/C=C/C=C/[C@@H](SC[C@H](NC(=O)CC[C@H](N)C(=O)O)C(=O)NCC(=O)O)[C@@H](O)CCCC(=O)O; tested on = ABCC4 (Homo sapiens, UniProt O15439); test = substrate, membrane vesicle uptake; conditions = 0.1 µM, 10 min; how to read = reference: ATP over AMP; quantity = vesicle uptake ratio; result = 25 ± 1.3
SMILES = COc1ccc2[nH]cc(CCNC(C)=O)c2c1; test = binding, MIDAS equilibrium dialysis LC-MS; system = A2AR-BRIL thermostabilized; conditions = concentration not given; how to read = reference: no-protein control; quantity = log2 fold change; result = 0.116
SMILES = CC(=O)O[C@H]1C(=O)[C@@]2(C)[C@H]([C@H](OC(=O)c3ccccc3)[C@]3(O)C[C@H](OC(=O)[C@H](O)[C@@H](NC(=O)c4ccccc4)c4ccccc4)C(C)=C1C3(C)C)[C@]1(OC(C)=O)CO[C@@H]1C[C@@H]2O; tested on = SLCO1B3 M233I/S112A; test = uptake, inhibitor, radiolabelled substrate uptake; system = cells expressing SLCO1B3; conditions = 100 µM, 2 min, together with: 1 µM [3H]estradiol glucuronide; quantity = inhibition; result = 40 to 50%
SMILES = CC[C@H](C)CCCCC(=O)N[C@@H](CCN)C(=O)N[C@H](C(=O)N[C@@H](CCN)C(=O)N[C@H]1CCNC(=O)[C@H]([C@@H](C)O)NC(=O)[C@H](CCN)NC(=O)[C@H](CCN)NC(=O)[C@H](CC(C)C)NC(=O)[C@@H](Cc2ccccc2)NC(=O)[C@H](CCN)NC1=O)[C@@H](C)O; tested on = plasma proteins; test = equilibrium dialysis; system = human, mild renal insufficiency, plasma; conditions = intravenous, 0.75 mg/kg, 4 h, 37 °C; quantity = fu; result = 5%
SMILES = N[C@H](CNC(=O)c1ccc(-c2ccccc2Br)s1)C(=O)O; tested on = P-glycoprotein (human MDR1); system = MDCK canine MDR1 knock-out, human MDR1 transfected; conditions = 3 µM, pH 7.4; quantity = apparent permeability; result = < 10 ×10⁻⁶ cm/s
SMILES = CC[C@H]1[C@@H](O)[C@@H]2[C@H](CC[C@]3(C)[C@@H]([C@H](C)CCNC(=O)NS(=O)(=O)c4ccc(C(C)(C)C)cc4)CC[C@@H]23)[C@@]2(C)CC[C@@H](O)C[C@@H]12; tested on = ABCB1 (Homo sapiens, UniProt P08183); system = human, plasma; conditions = dose not given, mean, together with: quinidine; quantity = half-life; result = 11.4 h
SMILES = COc1cccc2c(Nc3ccc4[nH]c(C(=O)N/N=C/c5ccc(SC)cc5)cc4c3)cc(C)nc12; tested on = NR1I2; test = reporter gene, agonist, Gal4 hybrid reporter; system = HEK293T transiently transfected; conditions = 3 µM, 16 h, 0.1% DMSO; how to read = reference: vehicle; quantity = activation; result = 0.99 ± 0.09 fold
SMILES = CC(C)Nc1ccnc(Nc2ccccc2-c2ccccc2)n1; tested on = P-glycoprotein (human MDR1); system = MDR1-MDCKII; conditions = 10 µM, 1 h, pH 7.4; quantity = Papp (A-B); result = 18.4 ± 1.21 ×10⁻⁶ cm/s
SMILES = O=C(c1ccc(C(=O)N2CCC(N3CCCC3)CC2)c(Nc2ccccc2)c1)N1CCC(N2CCCC2)CC1; tested on = Lethal(3)malignant brain tumor-like protein 3, MBT domains (Homo sapiens, UniProt Q96JM7); test = FRAP; system = human cells; conditions = 0.01 µM; quantity = FRAP recovery half-time; result = 7 s
SMILES = Cc1oc2ccccc2c1Cc1cc(I)c(OCC(=O)O)c(I)c1; tested on = KCNH2 (Homo sapiens, UniProt Q12809); test = potassium current, whole-cell patch clamp; system = HEK293 expressing hERG1; conditions = concentration not given; how to read = reference: control; quantity = activation rate acceleration; result = ~4 fold
SMILES = COc1cc(O)c(CC=C(C)C)c2c1C(=O)CC(c1ccc(O)cc1)O2 (stereo not shown); tested on = CYP2C9; test = enzyme activity, inhibitor; system = human liver microsomes; conditions = 10 µM, pH 7.4, together with: tolbutamide; quantity = inhibition; result = 82.1 ± 1.7%
SMILES = C[C@@H](O)[C@@H](CO)NC(=O)[C@@H](CCCNC(=N)N)NC(=O)[C@@H]1CCCN1C(=O)[C@@H]1CSSC[C@H](NC(=O)[C@H](Cc2ccccc2)NC(=O)CN2CCN(CC(=O)O)CCN(CC(=O)O)CCN(CC(=O)O)CC2)C(=O)N[C@@H](Cc2ccc(O)cc2)C(=O)N[C@@H](Cc2ccccc2)C(=O)N[C@@H](CCC(N)=O)C(=O)N[C@@H](CC(N)=O)C(=O)N1 [gallium-68 labelled]; system = normal saline; conditions = 1 h, room temperature; quantity = radiochemical purity; result = > 99%
SMILES = Cn1cc(-c2ccc(-c3cncc(Cl)c3N3CCC4(CCNC4=O)CC3)cc2)cn1; tested on = COLO 205; test = gene expression, microarray, measured: MDM2 mRNA; conditions = concentration not given, 6 h; how to read = reference: untreated cells; quantity = log2 fold change; result = 2.54
SMILES = NCc1cc2c(cc1F)C(=O)N(C1CCC(=O)NC1=O)C2 (stereo not shown); tested on = MAOB (Homo sapiens, UniProt P27338); test = substrate, LC-MS/MS; system = recombinant enzyme; conditions = 10 µM, 4 h, pH 7.4; quantity = concentration; result = 8.5 µM
SMILES = C[C@H](CCC(=O)NCC(=O)O)[C@H]1CC[C@H]2[C@@H]3[C@H](O)C[C@@H]4C[C@H](OS(=O)(=O)O)CC[C@]4(C)[C@H]3CC[C@]12C; tested on = SLC22A11 (Homo sapiens, UniProt Q9NSA0); system = HEK293 control cells; quantity = uptake velocity; result = 3.7 ± 1 pmol/min/mg protein
SMILES = c1ccc(-c2cccc(Nc3nccc(NC4CCCCC4)n3)c2)cc1; tested on = P-glycoprotein (human MDR1); system = MDR1-MDCKII; conditions = 10 µM, 1 h, pH 7.4; how to read = reference: B-A over A-B; quantity = efflux ratio; result = 7.33
SMILES = COc1ccc(C=C2SC(=O)N(C(C)C(=O)O)C2=O)cc1 (stereo not shown); tested on = Ubiquitin carboxyl-terminal hydrolase 16, ZnF-UBD domain (USP16, Homo sapiens, UniProt Q9Y5T5); quantity = Kd; result = 116 µM
SMILES = CC(C)Nc1ccnc(Nc2cccc(-c3ccncc3)c2)n1; tested on = P-glycoprotein (human MDR1); system = MDR1-MDCKII; conditions = 10 µM, 1 h, pH 7.4; quantity = Papp (B-A); result = 53.8 ± 25.2 ×10⁻⁶ cm/s
SMILES = N#Cc1cc(NC(=O)[C@H]2c3ccccc3C(=O)N(CC(F)(F)F)[C@@H]2c2cccnc2)ccc1F; tested on = human PXR and CAR; test = activator; system = HepG2; quantity = reporter gene; result = no effect
SMILES = COC(=O)c1cccc(-c2cccc(Nc3nccc(NC4CCCCC4)n3)c2)c1; tested on = P-glycoprotein (human MDR1); system = MDR1-MDCKII; conditions = 10 µM, 1 h, pH 7.4; quantity = Papp (A-B); result = 0.015 ± 0.011 ×10⁻⁶ cm/s
SMILES = CCC(=O)NS(=O)(=O)c1ccc(-c2c(-c3ccccc3)noc2C)cc1; tested on = NR1I2; test = reporter gene, agonist, Gal4 hybrid reporter; system = HEK293T transiently transfected; conditions = 50 µM, 16 h, 0.1% DMSO; how to read = reference: vehicle; quantity = activation; result = 0.82 fold
SMILES = CC(C)Nc1ccnc(Nc2cccc(-c3ccccc3)c2)n1; tested on = P-glycoprotein (human MDR1); system = MDR1-MDCKII; conditions = 10 µM, 1 h, pH 7.4; quantity = Papp (B-A); result = 0.886 ± 0.217 ×10⁻⁶ cm/s
SMILES = CC(C)c1nc(N(C)S(C)(=O)=O)nc(-c2ccc(F)cc2)c1/C=C/[C@@H](O)C[C@@H](O)CC(=O)O; tested on = SLCO1B3 M233I/S112A; test = uptake, substrate; system = HEK293-A stably expressing SLCO1B3; conditions = 2 min; quantity = Vmax; result = 42.5 ± 2.67 pmol/mg protein/min
SMILES = c1ccc(-c2cccc(Nc3nccc(NC4CCCCC4)n3)c2)nc1; tested on = P-glycoprotein (human MDR1); system = MDR1-MDCKII; conditions = 10 µM, 1 h, pH 7.4; quantity = Papp (B-A); result = 18.6 ± 14.7 ×10⁻⁶ cm/s
SMILES = C[C@]1(c2nc3c(C(N)=O)cccc3[nH]2)CCCN1; tested on = CYP2D6; system = human liver microsomes; conditions = 100 µmol/L, 30 min; quantity = contribution to metabolism; result = ~72%
SMILES = CC(C)Nc1ccnc(Nc2cccc(-c3ccccn3)c2)n1; tested on = P-glycoprotein (human MDR1); system = MDR1-MDCKII; conditions = 10 µM, 1 h, pH 7.4; quantity = Papp (A-B); result = 0.39 ± 0.222 ×10⁻⁶ cm/s
SMILES = O=c1[nH]c(=O)c(Cc2cccc(C(F)(F)F)c2)c([C@H]2CC[C@H](c3ccccc3)CC2)[nH]1; tested on = SLCO1B3; test = uptake, inhibitor; system = HEK cells expressing SLCO1B3; conditions = together with: CCK-8; quantity = IC50; result = > 1 µM

Repeated from above:
SMILES = CCC(=O)NS(=O)(=O)c1ccc(-c2c(-c3ccccc3)noc2C)cc1; tested on = NR1I2; test = reporter gene, agonist, Gal4 hybrid reporter; system = HEK293T transiently transfected; conditions = 50 µM, 16 h, 0.1% DMSO; how to read = reference: vehicle; quantity = activation; result = 0.82 fold
SMILES = CCc1cc(/C(C)=N/OCc2ccc(C3CCCCC3)c(C(F)(F)F)c2)ccc1CN1CC(C(=O)O)C1; tested on = CYP2C9; test = population PK; system = human, CYP2C9*3/*3, plasma; quantity = CYP2C9-mediated clearance; result = 0.165 L/h
